Results gathered from unrelated publications.
Values joined by “and” are separate records of one study, mostly repeats; a detail may differ. Numbers after ± are the reported error. ≈ marks a conversion by molar mass, not a printed value.

SMILES | test | test system | conditions | scale | measurement | value
CCc1cc(C(=O)NC)c2nccc(N3CCc4c(cc(Cn5ccnc5)cc4-c4cn(C)nc4C(F)(F)F)C3=O)c2c1 | – | Sprague Dawley rat | oral, 100 mg/kg once daily, day 4, 7-day toxicology study | reference: day 1 | body weight change | 9.4%
CCC(C)n1ncn(-c2ccc(N3CCN(c4ccc(OCC5COC(Cn6cncn6)(c6ccc(Cl)cc6Cl)O5)cc4)CC3)cc2)c1=O (centres unmarked) | – | healthy human volunteers | oral, 200 mg, event Diarrhoea, continued dosing | – | adverse events | 7%
C[C@@H]1NC(=O)[C@H](CCCCNC(=O)CO/N=C/C(=O)NCCCC[C@@H]2NC(=O)[C@@H](Cc3ccccc3)NC(=O)[C@H](CC(=O)O)NC(=O)CNC(=O)[C@H](CCCNC(=N)N)NC2=O)NC(=O)CNC(=O)[C@@H]2CCCN2C(=O)[C@H](CCCCNC(=O)CO/N=C/C(=O)NCCCC[C@@H]2NC(=O)[C@@H](Cc3ccccc3)NC(=O)[C@H](CC(=O)O)NC(=O)CNC(=O)[C@H](CCCNC(=N)N)NC2=O)NC(=O)[C@H](CCCCNC(=O)CCNC(=O)CCNC(=O)CCNC(=O)[C@H](CCCCN)NC(=O)[C@H](Cc2ccccc2)NC(=O)CNC(=O)CN2CCCNCCNCCCNCC2)NC(=O)[C@H](CCCCNC(=O)CO/N=C/C(=O)NCCCC[C@@H]2NC(=O)[C@@H](Cc3ccccc3)NC(=O)[C@H](CC(=O)O)NC(=O)CNC(=O)[C@H](CCCNC(=N)N)NC2=O)NC(=O)CNC(=O)[C@@H]2CCCN2C(=O)[C@H](CCCCNC(=O)CO/N=C/C(=O)NCCCC[C@@H]2NC(=O)[C@@H](Cc3ccccc3)NC(=O)[C@H](CC(=O)O)NC(=O)CNC(=O)[C@H](CCCNC(=N)N)NC2=O)NC1=O [copper-64 labelled] | RP-HPLC | radiolabelling buffer | 24 h, 37 °C | – | intact fraction | 98.6%
Cc1cn(-c2cc(NC(=O)c3ccc(C)c(Nc4nccc(-c5cccnc5)n4)c3)cc(C(F)(F)F)c2)cn1 | population PK model, bootstrap | human, both sexes, plasma | oral | – | absorption lag time (ALAG1) | 0.102 h
Cn1cnc2c(F)c(Nc3ccc(Br)cc3Cl)c(C(=O)NOCCO)cc21 | population PK model | human, plasma | oral, nonlinear absorption model, fed | – | absorption lag time | 0.62 h
N#Cc1ccc2c(c1)[C@H]1CCCN(C(=O)c3ccc4[nH]cnc4c3)[C@H]1C2 | – | human | 10 mg, day 15 | – | minimum ACTH level | 2.1 pmol/L
O=C(NCCN1CCCC1)c1cc(-c2ccc(CN3CCOCC3)cc2)nc2ccc(F)cc12 | – | human whole blood | citric acid buffer 100 mM, 1/1 v/v | – | freeze-thaw stability | 4 cycles
CNc1ccc(-c2nc3ccc(O)cc3s2)cc1 [carbon-11 labelled] | ex vivo biodistribution | APP/PS1 mouse, AD model, kidneys | intravenous, 30 min | – | SUV | 6.85 ± 5.77
Cc1cc(NC2CCN(C(=O)OC3CCN(C(=O)/C=C/CN(C)C)C3)CC2)n2ncc(C(C)C)c2n1 (centres unmarked) | CTCAE v4.0, refers to: Arthralgia | patients with advanced solid tumours | oral, dose not given, TIW, grade 3 or higher | – | patients with TEAE | 0%
COCCOc1cnc2ccn([C@H](C)c3nnc4c(F)cc(-c5cnn(C)c5)cn34)c(=O)c2c1 | – | patients, plasma | oral, 200 mg once daily, day 28 24 h postdose | – | Ctrough | 370 ng/mL
N#Cc1ccc2c(c1)[C@H]1CCCN(C(=O)c3ccc4[nH]cnc4c3)[C@H]1C2 | – | human, plasma | 240 mg once daily, day 21 | – | pre-dose plasma concentration | 1810 nmol/L
O=C(Nc1nc2cccc(-c3ccc(CN4CCS(=O)(=O)CC4)cc3)n2n1)C1CC1 | refers to: arthralgia | human rheumatoid arthritis patients | oral, 150 mg once daily, 4 weeks, regardless of relatedness | – | treatment-emergent adverse events | 0%
C=CC(=O)NC1CCN(c2ncc3ncnc(Nc4ccc(Oc5ccc6c(c5)ncn6C)c(C)c4)c3n2)CC1 | – | healthy male humans | oral, 240 mg | – | participants with serious AE | 0%
CCc1c(-c2ccccc2)c(-c2ccccc2)nn1-c1ccccc1-c1cccc(OCC(=O)O)c1 | – | Sprague-Dawley rat, bone | oral, 10 mg/kg, 4 h | – | concentration | 2050 ng/g and 1900 ng/g
O=C(/C=C/CN1CCCCC1)Nc1cc2c(Nc3ccc(F)c(Cl)c3)ncnc2cc1O | – | human, plasma | oral, 30 mg dacomitinib | – | metabolite to parent AUC(0-inf) ratio | 0.478
CC(C)(C(=O)N1CCOc2c(C#N)cncc2C1)C(F)F | refers to: Vascular disorders | human | oral, 15 mg twice daily, 14 days, multiple ascending dose | – | subjects with adverse event | 0%
Cc1ccc(C)c(OCCCC(C)(C)C(=O)O)c1 | – | human, plasma | oral, dose not given, day 14 predose, mean | – | trough plasma concentration | 1990 ng/mL
COc1cc(Nc2ncc3c(n2)-c2ccc(Cl)cc2C(c2c(F)cccc2OC)=NC3)ccc1C(=O)O | – | patients | oral, dose not given, grade 3, any attribution, with: pembrolizumab | – | decreased lymphocyte count incidence | 38%
C[Si]1(C)O[Si](C)(C)O[Si](C)(C)O[Si](C)(C)O[Si](C)(C)O1 | – | 1-octanol/air | concentration not given | – | enthalpy of phase change | -11.3 kcal/mol

SMILES | test | test system | conditions | scale | measurement | value
C[C@@H]1CCO[C@H]2Cn3cc(C(=O)NCc4ccc(F)cc4F)c(=O)c(O)c3C(=O)N12 | – | human, haemodialysis patients, plasma | oral, dose not given, 24 h, steady state, fixed-dose combination | – | Ctau | 1300 ng/mL
C[C@@H](Nc1cc(F)cc(F)c1)c1cc(C(=O)N(C)C)cc2c(=O)cc(N3CCOCC3)oc12 | CTCAE v4, refers to: SIRS | patients with advanced solid tumours | oral, dose not given, phase I dose expansion | – | patients discontinuing for AE | 0%
Cc1ccc([C@@H]2O[C@H](CO)[C@@H](O)[C@H](O)[C@H]2O)cc1Cc1ccc(-c2ccc(F)cc2)s1 | – | Japanese type 2 diabetes patients | 100 mg, day 2, 24 h urine collection | reference: baseline | urinary magnesium excretion change | 19.9 mg
Cc1cc(-c2nnc(N)nc2-c2ccc(F)cc2)cc(Cl)n1 | refers to: type 1 diabetes mellitus | IO-naive mCRPC patients, male | oral, dose not given, treatment-related, grade 2 | – | patients with immune-mediated AE | 0%
Cc1ncc(CO)c(C(=O)O)c1O | – | rat | – | – | renal clearance | 49.9 ± 20.2 mL/min/kg
O=C(Nc1ccc(Cl)c(O)c1)Nc1ccc(Cl)c(Cl)c1 | reverse phase LC, C18 | acetonitrile gradient, 0.1% formic acid | converted from retention time | reference: Valko CHI standards | chromatographic hydrophobicity index | 103
CC(C)(C)c1ccc(O)c(CN(Cc2cc(C(C)(C)C)ccc2O)C2CCC(NC(N)=O)CC2)c1 (centres unmarked) | – | human liver microsomes | 2000 ng/mL, time not given, freeze-thaw, 3 cycles, -20 °C | – | recovery | 95.33 ± 0.6%
Cc1cc(-c2nccc3c2ccn3CC(=O)Nc2ccc(-c3cnccn3)cn2)ccn1 | – | human | 15 mg once daily, multiple ascending dose | – | musculoskeletal disorders | 11.1%
COc1cc2c(cc1OC)CN(CCc1ccc(NC(=O)c3cccc4c(=O)c5cccc(OC)c5[nH]c34)cc1)CC2 | – | Sprague Dawley rats, plasma | iv infusion, 0.89 mg/h/kg, 4 h | – | free plasma concentration | 5.3 ng/mL
O=S(=O)(NCCSc1ccccn1)c1ccc(Br)cc1 | – | octanol/buffer | pH 7.4 | – | logD | 3.03
Nc1ncnc2c1ncn2[C@H]1C[C@@H]2OP(=O)(O)OC[C@H]3O[C@@H](n4cnc5c(N)ncnc54)C[C@@H]3OP(=O)(O)OC[C@H]2O1 | – | non-tumor-bearing mice, blood | intravenous, 1 mg/kg, toxicity study | – | RDW-SD | 20.6 ± 0.61 fL
CCOc1c([C@H](C)n2nc(C)c3c(N)ncnc32)cc(Cl)c(F)c1[C@@H]1CNC(=O)C1 | refers to: ΔQTcF ≤ 30 ms | previously treated B-cell malignancy | oral, 30 mg once daily, baseline QTcF ≤450 ms | – | share of ECG observations | 99.1%
CN(C(=O)C(C)(C)c1cc(C(F)(F)F)cc(C(F)(F)F)c1)c1cnc(N2C[C@H]3COCCN3C[C@H]2CO)cc1-c1ccc(F)cc1[14CH3] | refers to: total radioactivity | human, male, plasma | oral, 120 mg | – | last quantifiable time | 96 to 240 h
CCN1/C(=C/C(C)=O)Sc2ccc(F)cc21 | – | cynomolgus monkey | oral, 100 mg/kg, 1 h post-dose | – | QTc interval (Bazett) | 336 ± 15 ms
Cn1cc(-c2cn3nccc3c(-c3cnn([C@]4(CC#N)C[C@@H](C#N)C4)c3)n2)cn1 | – | healthy humans fed, plasma | oral, 1200 mg once daily, day 10, geometric mean | – | peak to trough ratio | 29.8
CN(CCC(=O)O)C(=O)c1ccc2c(c1)CC[C@@H]1[C@@H]2CC[C@]2(C)C(c3cncc(F)c3)=CC[C@@H]12 | – | premenopausal women, endometriosis pain, serum | 60 mg twice daily, visit 5, mean | reference: baseline | direct bilirubin change | 0.246 mg/dL
[O]=[Co].[O]=[Co][O][Co]=[O] | – | rat, male, faeces, 24-h collection | oral gavage, single, 300 mg/kg (220 mg Co/kg), day 2, vehicle 0.5% HPMC | reference: vehicle control subtracted | cobalt concentration | 258 µg/g
COc1cccc(-c2cccc(Nc3nccc(NC4CCCCC4)n3)c2)c1 | – | MDCKII-WT cells | 10 µM, pH 7.4 | reference: Papp B-A over A-B | efflux ratio | 10.3
FC(F)(F)c1ccc(CNc2ccc(Cc3c[nH]c4ncc(Cl)cc34)cn2)cn1 | refers to: Dyspepsia | patients with advanced solid tumours, non-TGCT cohort | oral, 1000 mg/day, grade 3 or higher | – | treatment-related adverse events | 0%

SMILES | test | test system | conditions | scale | measurement | value
COc1ccc(-n2nc(C(N)=O)c3c2C(=O)N(c2ccc(N4CCCCC4=O)cc2)CC3)cc1 | – | healthy mixed-breed dogs, plasma | oral, 0.5 mg/kg every 12 h for 7 days, after last dose | – | terminal half-life | 7.6 ± 0.7 h
Cc1nc2ccc(OCc3ccc(C(F)(F)F)cc3)cc2[nH]1 | – | Balb/c mouse, male, heart | oral, 10 mg/kg, 4 h | – | tissue concentration | 2000 ± 262 ng/g
COc1ncc(-c2nc3c(n2C(C)C)[C@H](c2ccc(Cl)cc2)N(c2cc(Cl)cn(C)c2=O)C3=O)c(OC)n1 | LC-MS/MS | human, plasma | oral, 7.5 mg, cycle 1 day 14, low-dose arm | – | Cmax | 52.2 ng/mL
Clc1cc(Cl)cc([C@@H]2COC[C@H](C3CCCC3)N2)c1 | shake-flask, 1-octanol/buffer | – | pH 7.4 | – | logD | > 4.7
C=CC(=O)NC1CCN(c2ncc3ncnc(Nc4ccc(Oc5ccc6c(c5)ncn6C)c(C)c4)c3n2)CC1 | – | healthy male volunteers | oral, 60 mg | – | estimated first-pass effect | ~10%
CNC(=O)c1ccccc1Nc1cc(Nc2ccc(N3CCOCC3)cc2OC)ncc1C(F)(F)F | – | 0.1% w/v Soluplus buffer | 4 h, pH 6.8, 37 °C | – | solubility | 1000 µg/mL (≈ 1990 µM)
CCOC(=O)N1C[C@@H](c2cc(Cl)cc(Cl)c2)N[C@@H](c2ccc(N3CCCC3)cc2)C1 | shake-flask, 1-octanol/buffer | – | pH 7.4 | – | logD | > 4.7
Cc1nc(N)sc1-c1ccnc(Nc2ccc(N(C)C)cc2)n1 | – | octanol/buffer | 67 µM, pH 7.4 | – | logD | 3.32
CCOC(=O)N1C[C@@H](c2sc(N(C)C)nc2C)N[C@@H](c2ccc(F)c3ccccc23)C1 | shake-flask, 1-octanol/buffer | – | pH 7.4 | – | logD | > 4.7
CCN1CCN(Cc2ccc(Nc3ncc(F)c(-c4cc(F)c5nc6n(c5c4)[C@H](C)CCC6)n3)nc2)CC1 | – | human, Phase Ib patients, plasma | 300 mg, single dose, median, with: fulvestrant | – | Tmax | 9.95 h
CCOC(=O)c1c(NC(=O)CNC(C)C)sc2c1CCCCC2 | – | mice (male), brain | intraperitoneal, 100 mg/kg, 1 h | – | brain concentration | 8020 ng/g
O=C(O)CN1CCCN2CCN(Cc3ccccc3)CCCN(CC1)Cc1cccc(n1)C2 | – | 64Cu complex | 2 h, pH 7.4, 37 °C, with: DOTA excess | – | intact complex | 99%
Cn1cncc1-c1c(F)cncc1NC(=O)c1c(N)nn2cc(F)cnc12 | two-compartment PK model | xenograft-bearing mice, plasma | – | – | central clearance | 0.12 mL/min/kg
Cc1ccc(NS(=O)(=O)c2cc(C(=O)Nc3ccccc3C(=O)N3CCOCC3)ccc2Cl)c(C)c1 | – | octanol/buffer | pH 7.4 | – | logD | 3.09
CC(C)(F)C[C@H](N[C@@H](c1ccc(-c2ccc(S(C)(=O)=O)cc2)cc1)C(F)(F)F)C(=O)NC1(C#N)CC1 | – | PBS | 100 µM, 23 h, pH 7.45, 37 °C, with: cysteine 10 mM | – | cysteine adduct formation | 17%
O=C1NCCc2nc(OCc3cccc(F)c3)ccc21 | refers to: Vasodilatation | Sprague-Dawley rat male | oral, 100 mg/kg, 30 min | direction not given | Irwin test score | 0
CC(C)(C)c1ccc([C@H]2COC[C@@H](C3CCCCC3)N2)cc1 | shake-flask, 1-octanol/buffer | – | pH 7.4 | – | logD | > 4.7
CNCc1ccc(-c2[nH]c3cc(F)cc4c3c2CCNC4=O)cc1 | refers to: any adverse event | human patients | oral, 600 mg twice daily, grade 4 | – | patients with adverse event | 7.7%
